{"data": "Measurements gathered from unrelated publications", "CNR1": "Cannabinoid receptor 1 (CNR1, Homo sapiens, UniProt P21554)", "note": "± gives the spread as reported.", "chain of UniProt P21554 (whole entry, unmodified, looked up)": "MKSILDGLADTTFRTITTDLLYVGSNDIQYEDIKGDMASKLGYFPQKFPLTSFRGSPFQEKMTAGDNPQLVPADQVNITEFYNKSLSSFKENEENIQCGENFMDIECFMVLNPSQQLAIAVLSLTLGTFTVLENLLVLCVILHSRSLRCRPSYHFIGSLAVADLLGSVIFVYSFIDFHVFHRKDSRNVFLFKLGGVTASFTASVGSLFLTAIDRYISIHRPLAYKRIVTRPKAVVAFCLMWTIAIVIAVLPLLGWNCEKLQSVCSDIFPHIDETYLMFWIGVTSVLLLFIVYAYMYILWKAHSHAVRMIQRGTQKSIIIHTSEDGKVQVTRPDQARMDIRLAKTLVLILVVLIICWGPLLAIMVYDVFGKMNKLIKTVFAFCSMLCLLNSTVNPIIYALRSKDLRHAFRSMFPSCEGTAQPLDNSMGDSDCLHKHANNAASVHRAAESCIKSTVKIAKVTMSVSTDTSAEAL"}
{"Structure (SMILES)": "Cc1ccc2c(C(C[N+](=O)[O-])c3cccs3)c(-c3ccccc3)[nH]c2c1 (stereo not drawn)", "target": "CNR1 (Homo sapiens, UniProt P21554, I245M)", "read-out": "receptor activation", "action": "agonist", "Emax": "106 ± 3.72%"}
{"Structure (SMILES)": "CCCCCn1ccc(C(=O)NC(C)(C)c2ccc(C)cc2)n1", "target": "CNR1", "read-out": "calcium signal", "action": "agonist", "technique": "fluorescence", "Emax": "46%"}
{"Structure (SMILES)": "CCCCCn1cc(C(=O)c2ccc3ccccc3c2)c2ccccc21", "target": "CNR1 (Homo sapiens, UniProt P21554, I267L/L193I/L359V)", "read-out": "cAMP inhibition", "action": "agonist", "technique": "CAMYEL BRET biosensor", "together with": "forskolin 10 µM", "reference": "reference agonist at wild type", "Emax": "112 ± 4%"}
{"Structure (SMILES)": "COc1ccccc1C(C[N+](=O)[O-])c1c(-c2ccccc2)[nH]c2ccccc12 (stereo not drawn)", "target": "CNR1 (Homo sapiens, UniProt P21554, Y397F)", "read-out": "Gαi1-γ2 dissociation", "technique": "BRET", "Emax": "95.6 ± 3.78%"}
{"Structure (SMILES)": "CCCCCn1ccc(C(=O)NC(C)(C)c2ccc(CNC(C)=O)cc2)n1", "target": "CNR1", "read-out": "calcium signal", "action": "agonist", "technique": "fluorescence", "Emax": "22%"}
{"Structure (SMILES)": "COC(=O)[C@@H](NC(=O)c1nn(Cc2ccc(F)cc2)c2cc(OCCCCNC(=N)N)ccc12)C(C)(C)C", "target": "CNR1", "read-out": "β-arrestin-1 recruitment", "action": "agonist", "reference": "FUB", "Emax": "< 20%"}
{"Structure (SMILES)": "O=[N+]([O-])CC(c1ccco1)c1c(-c2ccccc2)[nH]c2ccccc12 (stereo not drawn)", "target": "Cannabinoid receptor 1, with GoB (CNR1, Homo sapiens, UniProt P21554)", "read-out": "GoB dissociation", "action": "agonist", "technique": "BRET", "Emax": "29.1 ± 2.15%"}
{"Structure (SMILES)": "COC(=O)[C@@H](NC(=O)c1nn(Cc2ccc(F)cc2)c2cc(OCCCCNC(N)=O)ccc12)C(C)(C)C", "target": "CNR1", "read-out": "β-arrestin recruitment", "action": "agonist", "technique": "BRET", "Emax": "200%"}
{"Structure (SMILES)": "CCCCCn1ccc(C(=O)NC(C)(C)c2ccccc2F)n1", "target": "CNR1", "read-out": "calcium signal", "action": "agonist", "technique": "fluorescence", "Emax": "65%"}
{"Structure (SMILES)": "CCCCCn1cc(C(=O)c2ccc3c(c2)CC(C)(C)C3)c2ccccc21", "target": "CNR1", "read-out": "Gαi1 activation", "action": "agonist", "technique": "BRET", "reference": "reference agonist", "Emax": "38 ± 6.5%"}
{"Structure (SMILES)": "CCCCCn1ccc(C(=O)NC(C)(C)c2ccc(N)cc2)n1", "target": "CNR1", "read-out": "calcium signal", "action": "agonist", "technique": "fluorescence", "Emax": "61%"}
{"Structure (SMILES)": "CCCCCn1cc(C(=O)c2cccc3ccccc23)c2ccccc21", "target": "CNR1", "read-out": "cAMP inhibition", "action": "agonist", "technique": "CAMYEL BRET biosensor", "together with": "forskolin 10 µM", "reference": "reference agonist at wild type", "Emax": "103 ± 2%"}
{"note": "For quick reference, copied from above:"}
{"Structure (SMILES)": "CCCCCn1ccc(C(=O)NC(C)(C)c2ccc(C)cc2)n1", "target": "CNR1", "read-out": "calcium signal", "action": "agonist", "technique": "fluorescence", "Emax": "46%"}
{"Structure (SMILES)": "CCCCCn1cc(C(=O)c2ccc3ccccc3c2)c2ccccc21", "target": "CNR1 (Homo sapiens, UniProt P21554, I267L/L193I/L359V)", "read-out": "cAMP inhibition", "action": "agonist", "technique": "CAMYEL BRET biosensor", "together with": "forskolin 10 µM", "reference": "reference agonist at wild type", "Emax": "112 ± 4%"}
